Assay results pooled from the literature.
Each numbered part is a random draw from the data of one study; scales do not carry over between parts.

Block 1
Target: PABPC1L2, full length, GST fusion (mouse, UniProt A0ABA7IW68)
Method: RNAcompete
Molecule type: RNA
Sample: in vitro
Concentration: 20 nM
Notes: 7-mer, probes averaged, single round
Relative to: mean of 7-mers
Reading: higher = stronger binding
Quantity: 7-mer Z-score
Residues (chain): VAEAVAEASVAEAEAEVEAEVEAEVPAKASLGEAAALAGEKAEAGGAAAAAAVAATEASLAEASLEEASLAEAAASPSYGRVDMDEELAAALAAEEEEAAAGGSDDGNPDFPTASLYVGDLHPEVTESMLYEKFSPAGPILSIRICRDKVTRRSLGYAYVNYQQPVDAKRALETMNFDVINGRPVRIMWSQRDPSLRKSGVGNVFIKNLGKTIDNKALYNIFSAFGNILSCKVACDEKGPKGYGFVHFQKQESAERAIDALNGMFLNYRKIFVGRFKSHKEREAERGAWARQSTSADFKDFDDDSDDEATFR
Sequence = CAGAGCC; result = -0.0953
Sequence = CUUGACU; result = -0.374
Sequence = CUCGGCC; result = -0.164

Block 2
Target: Histone acetyltransferase KAT6A, winged helix 2, GST fusion (KAT6A, Homo sapiens, UniProt Q92794, residues 85-181)
Method: protein binding microarray
Molecule type: double-stranded DNA, one strand shown
Sample: in vitro
Concentration: not given
Notes: 8-mer, flanks averaged, mean of 2 arrays, mostly near background
Relative to: not given
Reading: higher = stronger binding
Quantity: E-score
Construct (chain): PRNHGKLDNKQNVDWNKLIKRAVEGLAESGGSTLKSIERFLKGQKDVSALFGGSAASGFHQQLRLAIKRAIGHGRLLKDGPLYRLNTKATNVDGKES
Sequence = ATACGCTA; result = -0.194
Sequence = CGAAAAAC; result = 0.0426
Sequence = AGTAAAAG; result = 0.16

Block 3
Target: Ras GTPase-activating protein-binding protein 1, RRM domain (G3BP1, Homo sapiens, UniProt Q13283)
Sequence of UniProt Q13283 (whole entry, looked up): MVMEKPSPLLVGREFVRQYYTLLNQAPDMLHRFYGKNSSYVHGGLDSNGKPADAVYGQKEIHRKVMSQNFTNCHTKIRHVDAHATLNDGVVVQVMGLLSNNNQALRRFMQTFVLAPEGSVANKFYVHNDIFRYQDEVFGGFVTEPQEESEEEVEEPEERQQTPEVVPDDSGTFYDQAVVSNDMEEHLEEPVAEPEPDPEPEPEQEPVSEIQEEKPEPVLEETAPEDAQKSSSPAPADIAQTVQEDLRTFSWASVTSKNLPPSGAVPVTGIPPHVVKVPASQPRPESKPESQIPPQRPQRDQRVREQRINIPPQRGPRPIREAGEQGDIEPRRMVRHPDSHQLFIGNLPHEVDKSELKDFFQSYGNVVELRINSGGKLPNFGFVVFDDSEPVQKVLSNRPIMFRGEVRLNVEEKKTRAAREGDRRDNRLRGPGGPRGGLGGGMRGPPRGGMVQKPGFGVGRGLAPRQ
Method: RNA Bind-n-Seq
Molecule type: RNA
Sample: in vitro
Concentration: 1 µM
Notes: whole 134-nt RNA, ends assumed
With: 150 mM KCl
Relative to: input library
Reading: higher = stronger binding
Quantity: log2 enrichment
Sequence = GGGAGUUCUACAGUCCGACGAUCCUCAAGUCCUGUGCUACACAUCGUAUGUACCGAAUCGGGUGGGUUUGGGUGGGAAAGUAUUAUGUUACGCCGUUCGGAUCUGCACUUCCAUGGAAUUCUCGGGUGUCAAGG; result = 0.679
Sequence = GGGAGUUCUACAGUCCGACGAUCCCUGUGCUACACAUCGUAUGUACCGAAUCGGGUUUUUUUGGGAAAAAGGGAAAAAAAGGGAAAGUAUUAUGUUACGCCGUUCGGAUCUGCUGGAAUUCUCGGGUGUCAAGG; result = -0.224
Sequence = GGGAGUUCUACAGUCCGACGAUCUCAAGUCCUGUGCUACACAUCGUAUGUACCGAAUCGGGGCCGGGGCCGGGCCGGGAAAGUAUUAUGUUACGCCGUUCGGAUCUGCACUUCUGGAAUUCUCGGGUGUCAAGG; result = -1.16

Other studies, line by line
Molecule = PhoQ, residues 284 288 289 292 302 303 ALVSVA; target = PhoP, residues 12 14 15 18 19 SGWQI (Escherichia coli, UniProt P23836); test = Sort-seq, item: YFP reporter; system = E. coli; setting = PhoQ-PhoP variant library, with: 10 µM Mg2+; scale = relative to: high Mg2+ state, higher = stronger signaling; quantity = fold induction; result = 1.8
